Measured values pooled from the literature.
Parts stem from different laboratories: compare values within a part only. Changes are numbered by the printed parent chain.

Set 1 — target: CCNE2, cyclin fold, Cln2 fusion (human); technique: yeast growth competition, sequencing; matrix: yeast; setting: strong parent motif; baseline: not given; reading: higher = stronger binding; quantity: normalised enrichment score
Starting sequence: DOT1L docking peptide (human); SEAKRRIVFTITT
E2A: 1.52
R5A: -0.0265
I11A: 1.37
R6A: 0.162
K4A: 0.702
T10A: 0.887

Set 2 — technique: DHFR PCA, deep sequencing; matrix: yeast; added: (+)-ABA 0.39 µM; baseline: wild-type fitted maximum; reading: higher = stronger binding; quantity: relative binding score
Target: ABI1, truncated, D143A, DHFR fusion (Arabidopsis thaliana)
Setting: methotrexate growth selection, single substitutions
Starting sequence: PYL1, truncated, DHFR fusion (Arabidopsis thaliana); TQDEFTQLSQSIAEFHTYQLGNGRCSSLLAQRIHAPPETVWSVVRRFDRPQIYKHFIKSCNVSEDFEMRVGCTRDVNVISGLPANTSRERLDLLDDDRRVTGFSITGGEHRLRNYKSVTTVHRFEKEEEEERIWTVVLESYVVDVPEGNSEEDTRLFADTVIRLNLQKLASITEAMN
A30C: 32.1%
A35Y: -15.7%
S171L: 26.1%
Y53P: -9.34%
E14A: 2.04%
K168L: 2.95%
S11H: 32.1%
F66T: 10.4%
G81S: 36.7%
G21E: 58.1%
S117C: 15.8%
F103R: -2%
H122Q: -3.31%
H55M: 63.7%
T120Q: -11.6%
F15I: 0.624%

Set 3 — technique: RNA Bind-n-Seq; form: RNA; matrix: in vitro; concentration: 365 nM; baseline: no-protein control; reading: higher = stronger binding; quantity: RBNS enrichment (R)
Target: RNA binding protein fox-1 homolog 2, RRM domain, GST-SBP tag (RBFOX2, Homo sapiens, UniProt O43251-10, residues 100-194)
Setting: natural RNA segment, single round, ends assumed
Shared flanks, not repeated: GGGAGUUCUACAGUCCGACGAUC … UGGAAUUCUCGGGUGCCAA
Residues (chain): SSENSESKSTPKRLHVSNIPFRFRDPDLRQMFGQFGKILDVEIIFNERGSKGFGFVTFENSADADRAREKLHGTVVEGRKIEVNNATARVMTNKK
GGGGUUGUCCAGCCUGGACUUGUAGCACACAUGUCCUGAAGCAAAGCUCCGGUGACUGCAUGAGCCACCUGGCCACAGUCCUCCCAUGGAGGGCCUGCCGUGACGCUCAG: 0.528
UUAUACUAUAAAUUCAGUGAUGGCAAGAACCAACACUGUUUUUUUGUGAGAAUUGUCAGUGUAACUAUUACCUACCAGUAUUGUUCAGAGAGAUUGAAACAGAAUAAACG: 0.341
GAUUUCCUGAAAAGGGAACACCGGAAUUUGAUUUGUGGCCAAAUUUACUGAGAAAAAGAUGAGGUUCUAAAAUGGUGGUAUGAAGCCCUCUCCCUUCUUUGUAGAAUUAA: 0.948
AGGGGAACAAAGAAUACUUUGGGGGGAAAAAAGUUUUAAAAAAGAAAUUGAAAAUUGCCUUGCAGAUAUUUAGGUACAAUGGAGUUUUCUUUUCCCAAACGGGAAGAACA: 1.33
GCACAGAGCUAAAAUCUCCAAAAGAACUGGGUGUGAACUCACAUGGUGGCUAGGAAGGCAGAGCGCCCUCAGCCCAGCAUAUAGCUGUGAGUAUGUAAUAAAUCACUGCC: 0.519
AAGGGAAAUGCAUUUCUUAGAAAUCCGUGAACCCUCAGUUGUAUGCUUUCAGUACUCGUGUUAAUAUGUUUCUAUGGCAACUCUGAGGUCAGUGGUUUAGAAAUGAGAUA: 0.564
UUUAUAAGACUGUGUCUUGUUCACCAGUGAGAGAGGGCUGAGGUCAUUACUCACCUGGCACAGACGGCCUAAAUGCAAUCCCCAGCACAAAAAGAGACUGCCUACAAAUU: 0.192
UGCGUUUCAGGGACAUGGGGAGACAUGAAGAAGGCAGCUGCAGCUUGCUGUGGAGACCCCGUGGCUCUGCACUUUACCCGUGAGGGCAUUAACCUGACCCAGCAUGGAAG: 1.18
AAGGACCUCCAUUUGGAGAAUUGCAAGGAUUUUAUCCUGAAUUAUAGUGUUGGUGAGUUCAAGUCAUCACGCCAAGUGCUUGCCAUCCUGGUUGCUAUUCUAAGAAUAAU: 0.294
GGAGGAAGCAAUUCCACUUGGUUUGACAACUUCUGCCACUCCCAUGUCAGAUGACUUGCACUUCUUAAAGAGAUUGCUUUAUAACACUAAGACAUCCUUUCUAAAGAUUC: 0.251
GCUUCACCAGGUGCAGGCUGCUAUGGGCUUGUGGAAACCACAGGUACAGGUGGGAUUUCAUGGGUCCAUGUGUUACAAAAAUAAGAAUUGGAGCAUUAACUUGAAAUUGU: 0.414
UCUAAGAUUAUAAAAUAAGCAGGUACUUUAUUUACUAUGUUGUACUCUGCAGUGUUGAUUUUUUAAAGUAGUUUUCUGCAAUGAGCUUUUAGUCUAAGGAAAGCAUAGAU: 0.502

Set 4 — technique: universal PBM; form: double-stranded DNA, one strand shown; matrix: in vitro; concentration: 600 nM; reading: higher = stronger binding; quantity: E-score
Target: Sal-like protein 4, full length isoform A (SALL4, Homo sapiens, UniProt Q9UJQ4, residues 1-1053)
Chain of UniProt Q9UJQ4 (whole entry, looked up): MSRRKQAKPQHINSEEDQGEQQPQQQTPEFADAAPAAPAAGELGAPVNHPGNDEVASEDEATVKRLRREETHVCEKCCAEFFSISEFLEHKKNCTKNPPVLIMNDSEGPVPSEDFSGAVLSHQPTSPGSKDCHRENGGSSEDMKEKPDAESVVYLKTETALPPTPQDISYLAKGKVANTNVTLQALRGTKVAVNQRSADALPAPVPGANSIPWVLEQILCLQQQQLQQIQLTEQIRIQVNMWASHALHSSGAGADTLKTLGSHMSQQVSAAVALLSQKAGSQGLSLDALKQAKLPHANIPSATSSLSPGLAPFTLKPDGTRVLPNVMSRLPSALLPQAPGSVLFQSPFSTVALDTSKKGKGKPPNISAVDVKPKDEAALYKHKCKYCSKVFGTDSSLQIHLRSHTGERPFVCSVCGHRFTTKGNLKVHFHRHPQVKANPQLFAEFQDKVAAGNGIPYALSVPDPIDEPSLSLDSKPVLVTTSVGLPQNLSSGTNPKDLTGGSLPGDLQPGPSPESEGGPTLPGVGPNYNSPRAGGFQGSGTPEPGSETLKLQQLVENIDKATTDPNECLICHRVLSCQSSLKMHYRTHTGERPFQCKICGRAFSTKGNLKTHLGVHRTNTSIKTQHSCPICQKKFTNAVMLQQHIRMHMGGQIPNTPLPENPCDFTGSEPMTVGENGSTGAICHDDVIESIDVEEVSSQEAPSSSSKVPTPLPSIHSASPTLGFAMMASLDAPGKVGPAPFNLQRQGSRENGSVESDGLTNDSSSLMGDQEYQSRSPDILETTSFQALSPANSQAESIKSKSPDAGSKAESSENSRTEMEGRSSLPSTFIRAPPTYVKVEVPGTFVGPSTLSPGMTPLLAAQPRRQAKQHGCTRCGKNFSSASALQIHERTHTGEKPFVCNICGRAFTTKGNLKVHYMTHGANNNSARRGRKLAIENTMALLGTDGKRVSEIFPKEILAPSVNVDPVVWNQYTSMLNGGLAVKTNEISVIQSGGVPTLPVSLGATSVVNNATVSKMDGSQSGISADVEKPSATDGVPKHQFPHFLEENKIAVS
Setting: 8-mer, flanks averaged, mean of replicates
ACAAATAA: 0.315
AAATCTCC: -0.191
ATACGTGA: 0.162
AAGTCTCA: 0.0422
CTCCTCCC: -0.344
CCGCGATC: -0.314
CACGGGGG: -0.336
ATCGGCAC: -0.114
GGAAACAC: -0.138
CGGGAACA: -0.103
CAGTGTAA: 0.129
AGGGGCGA: -0.399
CCCTAGCG: -0.296
ACCCAAGA: -0.0283
TCGGCGAA: -0.0123
TATGAAAA: 0.41
AATACCCA: 0.183
CACAACCA: 0.0348
AATCGGAC: -0.0598
CAGCCAAG: -0.117
TAGGAACA: 0.0727

Set 5 — technique: competition protein-binding microarray; form: double-stranded DNA, one strand shown; matrix: in vitro; concentration: 2 µM; added: Cbf1 competitor, 0.05 µM; reading: higher = stronger binding; quantity: fluorescence intensity; shared flanks, not repeated: … GTCTTGATTCGCTTGACGCTGCTG
Target: Phosphate system positive regulatory protein PHO4, full length, GST-tagged (PHO4, Saccharomyces cerevisiae, UniProt P07270, residues 1-312)
Setting: whole 60-bp probe, lowest competitor level
Residues (chain): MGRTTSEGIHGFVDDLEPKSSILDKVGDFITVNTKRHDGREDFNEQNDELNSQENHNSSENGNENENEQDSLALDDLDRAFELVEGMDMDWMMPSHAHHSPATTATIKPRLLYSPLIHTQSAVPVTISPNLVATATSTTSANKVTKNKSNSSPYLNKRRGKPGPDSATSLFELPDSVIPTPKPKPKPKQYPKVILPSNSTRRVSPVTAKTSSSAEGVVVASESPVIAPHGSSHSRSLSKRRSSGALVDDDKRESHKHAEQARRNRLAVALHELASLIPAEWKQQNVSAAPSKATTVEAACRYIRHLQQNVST
CTAACGAAGGTTTGCCGGGTGGGTGACAAGCCAAGT: 3800 a.u.
CGGGGTTAAGTTTGATAGGTGGGTGGCTTGCAGCAG: 4340 a.u.
TGCGCAACAACTTTTCACGTGCAGTTATGTCTAGAA: 14500 a.u.
CCGGGGACGACGCTCCTCGTGCTTTCTTCCCATCTA: 12300 a.u.
AAATTACTAAGTTCTCACGTGTTTTACCCCGTATGA: 12600 a.u.
GTCTTGTCTCATTTTCACGTGGTTTTCCCCACTTCA: 12200 a.u.
TTACCCGGTACGAGTCACGTGATGGAGGTGCATTGG: 13500 a.u.
AAAGCGGTAATTTGTGGCGTGGGTGCAGATATCTAT: 7160 a.u.
GTCTTGTCTCATTGGTTTGTGGGTGTCCCCACTTCA: 4640 a.u.
CATACCCAACCTTGTCAGGTGGGTGAAGATATTTGT: 5560 a.u.
AAAGCGGTAATTTGTCACTCTACTTCACATATCTAT: 2980 a.u.
TGCGCAACAACTTGAACTGTGGGTGTATGTCTAGAA: 4850 a.u.
CATACCCAACCTTGAAGCGTGGGTGAAGATATTTGT: 9080 a.u.
AAATTACTAAGTTGTCGAGTGGGTGACGCCGTATGA: 3800 a.u.
ATCGCTTATCGCTGTCATGTGACAGTTAATTGAAAT: 7820 a.u.
GCTGCTTTACAAGAACACATGAAAAATCCAGAAGTA: 4520 a.u.
TTCATTGATCGAGAGCGCGTGGAACAAATTCTAGAA: 9600 a.u.
AAATTACTAAGTTGTCACTAAACTTACCCCGTATGA: 3090 a.u.
TGCGCAACAACTTGCCTCGTGGGTGTATGTCTAGAA: 13300 a.u.
CTAACGAAGGTTTGTCACGTTACTTACAAGCCAAGT: 8240 a.u.
ATTAAATAGAAATATCACATGGCGATCCACTGAATG: 9790 a.u.
GATTTCTTAGCCCATCACGTGCTAACTTTTTGGAAT: 15200 a.u.
CTTTCCCGATCTTGCGAAGTGGGTGTAGCACATTTG: 4780 a.u.
TCTGATCTTGTGTTCCACGTGCCTGTGGTGGCTTTA: 18500 a.u.
CGGGGTTAAGTTTGGGCTGTGGGTGGCTTGCAGCAG: 4850 a.u.

Further values, each from its own experiment
PhoQ, residues 284 288 289 292 302 303 SASVAL
fold induction (PhoP, residues 12 14 15 18 19 GQALL (Escherichia coli, UniProt P23836); Sort-seq, refers to: YFP reporter; E. coli; PhoQ-PhoP variant library, added: 10 µM Mg2+; baseline: high Mg2+ state, higher = stronger signaling): 3.27

BMS1 (Homo sapiens, UniProt Q14692)
cross-linked residues (NAT10 (Homo sapiens, UniProt Q9H0A0); cross-linking MS; cell fractions; added: DMTMM): K418 to D634
